Earlier results, collected from citations in different studies.
Each line is one published result; not all experiments were run side by side. ± gives the spread as reported.
B1: CCL1; sequence looked up; chain KSMQVPFSRCCFSFAEQEIPLRAILCYRNTSSICSNEGLIFKLKRGKEACALDTVGWVQRHRKMLRHCPSKRK
UniProt P04692, sequence (whole entry, looked up): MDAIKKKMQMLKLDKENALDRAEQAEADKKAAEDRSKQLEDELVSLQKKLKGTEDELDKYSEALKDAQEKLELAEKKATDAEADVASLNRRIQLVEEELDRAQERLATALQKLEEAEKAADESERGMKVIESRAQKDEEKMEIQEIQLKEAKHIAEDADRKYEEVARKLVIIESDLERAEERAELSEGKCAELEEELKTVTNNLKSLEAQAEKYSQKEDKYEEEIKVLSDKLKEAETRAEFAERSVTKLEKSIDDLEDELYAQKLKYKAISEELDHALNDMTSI
UniProt Q9ULZ3, sequence (whole entry, looked up): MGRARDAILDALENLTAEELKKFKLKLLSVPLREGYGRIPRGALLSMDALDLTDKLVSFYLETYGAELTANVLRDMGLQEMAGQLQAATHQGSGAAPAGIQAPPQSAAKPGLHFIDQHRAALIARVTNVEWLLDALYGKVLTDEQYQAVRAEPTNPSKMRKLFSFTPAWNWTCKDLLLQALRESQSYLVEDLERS

Substance	tested on	assay	system	setting	how to read	endpoint	result
RWIKIWFQIRRWKWKK	Staphylococcus aureus	–	peptide, methicillin-resistant	–	–	MIC	23.4 µg/mL
coproporphyrin III	OATP1B1	–	human	dose not given, added: rifampicin	relative to: without rifampicin	AUC fold increase	3.3 fold
GVVIA	PC-12, differentiated	MTT	peptide	10-fold excess over Aβ42, added: Aβ42 5 µM	relative to: untreated	viability	83 ± 3%
indirubin-3'-monoxime	HUVEC	[3H]thymidine incorporation	–	–	–	IC50	0.36 µM
MAIRIIGRLARVRARVVARVRSRLLADDPPEDLLRVARRKGRRWFLFLS	Escherichia coli	–	peptide	–	–	MIC	25 µM
ifinatamab deruxtecan	–	–	patients with SCLC	dose not given	–	objective response rate	58%
STFGYRRGLSKYESIDEDELLASLSAEELKELERELEDIE (Lmod2(2-41); sequence looked up)	Tropomyosin alpha-1 chain (Tpm1, Rattus norvegicus, UniProt P04692)	CD thermal unfolding	peptide	30 °C	–	Kd	0.37 ± 0.05 µM
MKQPSKTHKTFKYFLILFLKSVKKVAGFKKKKHYHWRRSYKESCFRKRT	Bacillus subtilis	–	peptide	–	–	MIC	1.6 µM
epoetin alfa	UT7/EPO	cell proliferation, agonist	–	–	–	EC50	~0.035 nM
AVIA	PC-12	Aβ42-induced toxicity, inhibitor, MTT	peptide	added: Aβ42	–	IC50	53 ± 10 µM
teicoplanin	–	–	human patients	–	–	total plasma clearance	0.333 mL/min/kg
LLGGSLSSLDAAFR	–	isocratic RP-HPLC, C18 column	peptide, water/acetonitrile, 0.1% TFA	25 °C	–	retention coefficient S	19.4
HHLGGAKQAGDV	integrin αIIbβ3	–	peptide	concentration not given	–	bond half-life	~0.02 s
RQIKIWFQNRKWKWKK	Staphylococcus aureus	–	peptide, methicillin-resistant	–	–	MIC	250 µg/mL
dulaglutide	–	–	human	once weekly dosing	–	tmax	24 to 72 h
insulin (human)	BBB endothelial monolayers	outcome: increased	–	concentration not given	–	transendothelial electrical resistance	increased
pegcetacoplan	–	–	healthy human volunteers, serum	subcutaneous, daily for 28 days	–	time to steady state	≤ 22 days
PYCARD CARD domain (Homo sapiens, UniProt Q9ULZ3)	itself	NMR titration	–	–	–	Kd	50 µM
FPTIPLSR	–	isocratic RP-HPLC, C18 column	peptide, water/acetonitrile, 0.1% TFA	25 °C	–	retention coefficient S	19.8
B1 (CCL1)	CCR8 Y42A mutant	IP accumulation, agonist	–	–	–	EC50	11 nM
LPLLR	Caco-2	–	peptide	concentration not given, up to, at high dose, added: H2O2	relative to: H2O2 alone	nuclear Nrf2 level	≤ 2.87 fold
AIVV	PC-12	Aβ42-induced toxicity, inhibitor, MTT	peptide	added: Aβ42	–	IC50	14 ± 1 µM
insulin icodec	–	–	White patients with type 1 diabetes, serum	dose not given, geometric mean	–	dose-normalised AUCτ at steady state	12500 (nmol·h/L)/(U/kg)
VAIA	PC-12	Aβ42-induced toxicity, inhibitor, LDH release	peptide	added: Aβ42	–	IC50	14 ± 2 µM
KQKTLKKVWKLSEKVLIFASAFAKKAGAAEATLVL	Pseudomonas aeruginosa	–	peptide, ATCC 15692	–	–	MIC	2 µM
GGVVIA	PC-12, differentiated	MTT	peptide	10-fold excess over Aβ42, added: Aβ42 5 µM	relative to: untreated	viability	73 ± 2%
GVLDILKGAAKDLAGHVATKVINKI	Acinetobacter baumannii	–	peptide	–	–	MIC	> 512 µg/mL

Repeated from above:
Substance	tested on	assay	system	setting	how to read	endpoint	result
GVLDILKGAAKDLAGHVATKVINKI	Acinetobacter baumannii	–	peptide	–	–	MIC	> 512 µg/mL
KQKTLKKVWKLSEKVLIFASAFAKKAGAAEATLVL	Pseudomonas aeruginosa	–	peptide, ATCC 15692	–	–	MIC	2 µM
GGVVIA	PC-12, differentiated	MTT	peptide	10-fold excess over Aβ42, added: Aβ42 5 µM	relative to: untreated	viability	73 ± 2%
RQIKIWFQNRKWKWKK	Staphylococcus aureus	–	peptide, methicillin-resistant	–	–	MIC	250 µg/mL
